Published values from different studies.
Every numbered part comes from another study and shows a few of its results, in no order.
Chain of UniProt Q92985 (whole entry, unmodified, looked up): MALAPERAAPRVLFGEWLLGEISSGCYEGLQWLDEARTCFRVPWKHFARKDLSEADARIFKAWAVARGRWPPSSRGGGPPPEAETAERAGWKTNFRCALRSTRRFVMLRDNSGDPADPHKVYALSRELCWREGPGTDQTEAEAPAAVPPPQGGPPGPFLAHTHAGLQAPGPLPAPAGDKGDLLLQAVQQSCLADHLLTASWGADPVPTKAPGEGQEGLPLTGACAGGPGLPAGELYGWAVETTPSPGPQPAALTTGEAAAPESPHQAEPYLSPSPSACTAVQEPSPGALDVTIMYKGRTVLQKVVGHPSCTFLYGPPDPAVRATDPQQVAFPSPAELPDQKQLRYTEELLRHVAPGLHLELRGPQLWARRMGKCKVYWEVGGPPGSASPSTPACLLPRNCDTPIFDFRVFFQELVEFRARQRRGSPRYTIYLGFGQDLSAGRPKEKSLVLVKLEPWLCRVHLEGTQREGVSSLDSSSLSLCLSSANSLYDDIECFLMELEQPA

Study 1 — method: universal PBM; form: double-stranded DNA, one strand shown; sample: in vitro; concentration: 600 nM; direction: higher = stronger binding
Target: Sal-like protein 4, full length isoform A (SALL4, Homo sapiens, UniProt Q9UJQ4, residues 1-1053)
Chain of UniProt Q9UJQ4 (whole entry, looked up): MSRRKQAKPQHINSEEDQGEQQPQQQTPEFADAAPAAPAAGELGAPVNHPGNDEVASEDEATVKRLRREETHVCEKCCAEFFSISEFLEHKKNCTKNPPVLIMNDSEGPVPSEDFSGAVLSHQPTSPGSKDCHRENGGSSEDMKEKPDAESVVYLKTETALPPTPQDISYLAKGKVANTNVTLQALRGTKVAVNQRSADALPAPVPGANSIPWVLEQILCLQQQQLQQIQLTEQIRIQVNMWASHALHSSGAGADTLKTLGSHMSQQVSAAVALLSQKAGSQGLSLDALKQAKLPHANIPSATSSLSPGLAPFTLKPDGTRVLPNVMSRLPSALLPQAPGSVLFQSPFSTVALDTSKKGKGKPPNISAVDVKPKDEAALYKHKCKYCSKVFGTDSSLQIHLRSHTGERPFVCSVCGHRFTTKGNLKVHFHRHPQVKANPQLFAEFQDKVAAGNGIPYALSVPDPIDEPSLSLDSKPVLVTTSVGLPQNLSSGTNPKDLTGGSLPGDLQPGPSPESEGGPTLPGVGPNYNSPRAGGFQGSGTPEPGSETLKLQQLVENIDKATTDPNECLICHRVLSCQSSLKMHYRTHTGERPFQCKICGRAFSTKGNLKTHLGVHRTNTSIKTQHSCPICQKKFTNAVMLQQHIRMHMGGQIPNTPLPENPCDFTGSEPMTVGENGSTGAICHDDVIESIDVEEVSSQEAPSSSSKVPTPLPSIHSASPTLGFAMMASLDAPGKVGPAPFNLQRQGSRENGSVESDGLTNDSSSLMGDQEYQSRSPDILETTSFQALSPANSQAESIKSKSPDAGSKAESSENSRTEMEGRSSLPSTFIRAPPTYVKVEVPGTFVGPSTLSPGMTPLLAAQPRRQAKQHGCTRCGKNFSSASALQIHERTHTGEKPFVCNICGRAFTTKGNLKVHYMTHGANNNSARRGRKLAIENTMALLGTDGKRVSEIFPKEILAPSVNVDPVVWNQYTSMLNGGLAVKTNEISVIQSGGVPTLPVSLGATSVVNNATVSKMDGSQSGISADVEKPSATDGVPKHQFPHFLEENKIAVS
Notes: 8-mer, flanks averaged, mean of replicates
Oligonucleotide | E-score
GGTTGCAA | -0.0212
GCCATAGC | -0.0253
AGGCCGTG | -0.305
ACCGATAG | -0.00719

Further values, each from its own experiment
Substance | target | assay | test system | setting | scale | quantity | value
CGGACCCC | Histone acetyltransferase KAT6A, winged helix 2, GST fusion (KAT6A, Homo sapiens, UniProt Q92794, residues 85-181) | protein binding microarray | double-stranded DNA, one strand shown, in vitro | not given, 8-mer, flanks averaged, mean of 2 arrays, mostly near background | relative to: not given, higher = stronger binding | E-score | 0.125
GCCTAGCACTTAGATATCAGACTGAATTAGTGCTAGGTCTTGATTCGCTTGACGCTGCTG | Interferon regulatory factor 7, full length, phosphomimetic (IRF7, Homo sapiens, UniProt Q92985, residues 1-503, S471D/S472D/S475D/S476D/S477D/S483D/S484D/S487D) | protein-binding microarray | double-stranded DNA, one strand shown, in vitro | 2200 nM top, 60-bp whole probe, added: salmon DNA 0.4 mg/ml | relative to: random background probes, higher = stronger binding | fitted relative affinity | -0.485 z-score
PhoQ, residues 284 288 289 292 302 303 SMYGEC | PhoP, residues 12 14 15 18 19 QYFSL (Escherichia coli, UniProt P23836) | Sort-seq, refers to: YFP reporter | E. coli | PhoQ-PhoP variant library, added: 10 µM Mg2+ | relative to: high Mg2+ state, higher = stronger signaling | fold induction | 9.97
GATGCAAA | Histone acetyltransferase KAT6A, winged helix 1, GST fusion (KAT6A, Homo sapiens, UniProt Q92794, residues 1-85) | protein binding microarray | double-stranded DNA, one strand shown, in vitro | not given, 8-mer, flanks averaged, mean of 2 arrays, mostly near background | relative to: not given, higher = stronger binding | E-score | -0.106

A few entries again (study 1):
Oligonucleotide | E-score
ACCGATAG | -0.00719
